Measured values from different studies.
Each numbered part is a random draw from the data of one study; scales do not carry over between parts.
Chain of UniProt Q86UE8 (whole entry, looked up): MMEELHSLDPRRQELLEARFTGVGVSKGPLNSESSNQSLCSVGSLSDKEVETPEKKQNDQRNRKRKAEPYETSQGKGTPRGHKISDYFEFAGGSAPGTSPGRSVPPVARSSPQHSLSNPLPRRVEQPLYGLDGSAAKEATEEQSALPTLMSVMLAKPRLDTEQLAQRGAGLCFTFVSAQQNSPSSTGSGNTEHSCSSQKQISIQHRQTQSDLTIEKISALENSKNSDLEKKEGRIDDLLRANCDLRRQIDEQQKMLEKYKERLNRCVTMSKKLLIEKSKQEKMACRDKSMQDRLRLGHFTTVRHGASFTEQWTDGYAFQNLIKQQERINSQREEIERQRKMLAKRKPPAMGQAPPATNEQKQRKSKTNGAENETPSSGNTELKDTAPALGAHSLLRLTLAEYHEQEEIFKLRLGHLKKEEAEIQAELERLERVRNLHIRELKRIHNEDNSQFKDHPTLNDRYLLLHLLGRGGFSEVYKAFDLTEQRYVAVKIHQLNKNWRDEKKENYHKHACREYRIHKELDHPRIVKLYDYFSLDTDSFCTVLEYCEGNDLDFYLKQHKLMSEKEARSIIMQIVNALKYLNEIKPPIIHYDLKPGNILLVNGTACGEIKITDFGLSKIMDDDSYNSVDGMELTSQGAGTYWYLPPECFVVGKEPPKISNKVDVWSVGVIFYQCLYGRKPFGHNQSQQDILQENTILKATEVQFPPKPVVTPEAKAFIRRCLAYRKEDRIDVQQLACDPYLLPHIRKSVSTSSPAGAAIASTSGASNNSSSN
Chain of UniProt Q15569 (whole entry, looked up): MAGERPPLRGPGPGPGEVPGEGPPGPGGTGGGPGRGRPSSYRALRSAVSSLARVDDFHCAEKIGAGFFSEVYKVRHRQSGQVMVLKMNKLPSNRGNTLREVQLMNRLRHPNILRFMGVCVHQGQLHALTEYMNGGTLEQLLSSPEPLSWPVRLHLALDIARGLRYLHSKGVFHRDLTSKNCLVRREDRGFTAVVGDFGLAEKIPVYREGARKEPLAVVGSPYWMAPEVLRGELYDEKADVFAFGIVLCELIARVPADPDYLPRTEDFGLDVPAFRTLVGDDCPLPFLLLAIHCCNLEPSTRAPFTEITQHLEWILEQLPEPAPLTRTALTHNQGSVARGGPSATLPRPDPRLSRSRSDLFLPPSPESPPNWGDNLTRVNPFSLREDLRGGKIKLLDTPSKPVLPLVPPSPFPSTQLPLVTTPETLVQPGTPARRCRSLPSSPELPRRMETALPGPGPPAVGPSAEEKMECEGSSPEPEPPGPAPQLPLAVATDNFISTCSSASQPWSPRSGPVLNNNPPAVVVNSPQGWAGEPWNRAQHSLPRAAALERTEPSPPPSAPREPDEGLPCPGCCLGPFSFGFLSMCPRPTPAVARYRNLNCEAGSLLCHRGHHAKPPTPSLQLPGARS
Chain of UniProt P22607 (whole entry, looked up): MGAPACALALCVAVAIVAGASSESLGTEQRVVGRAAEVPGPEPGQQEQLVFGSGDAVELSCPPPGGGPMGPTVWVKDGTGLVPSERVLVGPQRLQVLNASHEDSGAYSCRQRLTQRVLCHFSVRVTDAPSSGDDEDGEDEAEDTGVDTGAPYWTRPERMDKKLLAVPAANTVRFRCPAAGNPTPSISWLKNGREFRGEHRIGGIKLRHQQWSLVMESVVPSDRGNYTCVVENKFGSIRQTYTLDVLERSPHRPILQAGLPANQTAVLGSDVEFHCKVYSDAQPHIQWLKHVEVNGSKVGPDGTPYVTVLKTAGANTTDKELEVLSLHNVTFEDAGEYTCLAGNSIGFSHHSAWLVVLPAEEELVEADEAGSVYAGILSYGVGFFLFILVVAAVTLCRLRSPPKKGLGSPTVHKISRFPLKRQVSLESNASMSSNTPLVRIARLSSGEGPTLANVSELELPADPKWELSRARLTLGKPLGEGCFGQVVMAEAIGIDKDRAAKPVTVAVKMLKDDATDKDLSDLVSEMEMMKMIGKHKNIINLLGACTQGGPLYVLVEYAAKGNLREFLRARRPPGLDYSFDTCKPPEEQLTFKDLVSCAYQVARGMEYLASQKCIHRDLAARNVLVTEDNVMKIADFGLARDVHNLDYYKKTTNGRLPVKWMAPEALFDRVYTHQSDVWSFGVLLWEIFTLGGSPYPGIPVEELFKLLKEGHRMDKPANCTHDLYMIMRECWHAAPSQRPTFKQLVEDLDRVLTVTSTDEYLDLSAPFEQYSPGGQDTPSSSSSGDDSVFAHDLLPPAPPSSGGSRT
Chain of UniProt Q8WU08 (whole entry, looked up): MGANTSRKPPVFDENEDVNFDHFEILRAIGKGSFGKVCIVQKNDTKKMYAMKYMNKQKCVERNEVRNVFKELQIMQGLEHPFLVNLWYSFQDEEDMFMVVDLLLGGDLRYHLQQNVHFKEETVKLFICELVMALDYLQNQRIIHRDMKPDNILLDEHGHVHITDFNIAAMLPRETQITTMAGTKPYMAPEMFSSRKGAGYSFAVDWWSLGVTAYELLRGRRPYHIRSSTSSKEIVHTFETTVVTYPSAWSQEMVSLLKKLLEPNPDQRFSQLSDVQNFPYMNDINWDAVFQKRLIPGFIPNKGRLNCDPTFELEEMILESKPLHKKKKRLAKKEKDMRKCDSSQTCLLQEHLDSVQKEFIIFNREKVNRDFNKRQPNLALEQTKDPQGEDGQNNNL
Chain of UniProt Q15746 (whole entry, looked up): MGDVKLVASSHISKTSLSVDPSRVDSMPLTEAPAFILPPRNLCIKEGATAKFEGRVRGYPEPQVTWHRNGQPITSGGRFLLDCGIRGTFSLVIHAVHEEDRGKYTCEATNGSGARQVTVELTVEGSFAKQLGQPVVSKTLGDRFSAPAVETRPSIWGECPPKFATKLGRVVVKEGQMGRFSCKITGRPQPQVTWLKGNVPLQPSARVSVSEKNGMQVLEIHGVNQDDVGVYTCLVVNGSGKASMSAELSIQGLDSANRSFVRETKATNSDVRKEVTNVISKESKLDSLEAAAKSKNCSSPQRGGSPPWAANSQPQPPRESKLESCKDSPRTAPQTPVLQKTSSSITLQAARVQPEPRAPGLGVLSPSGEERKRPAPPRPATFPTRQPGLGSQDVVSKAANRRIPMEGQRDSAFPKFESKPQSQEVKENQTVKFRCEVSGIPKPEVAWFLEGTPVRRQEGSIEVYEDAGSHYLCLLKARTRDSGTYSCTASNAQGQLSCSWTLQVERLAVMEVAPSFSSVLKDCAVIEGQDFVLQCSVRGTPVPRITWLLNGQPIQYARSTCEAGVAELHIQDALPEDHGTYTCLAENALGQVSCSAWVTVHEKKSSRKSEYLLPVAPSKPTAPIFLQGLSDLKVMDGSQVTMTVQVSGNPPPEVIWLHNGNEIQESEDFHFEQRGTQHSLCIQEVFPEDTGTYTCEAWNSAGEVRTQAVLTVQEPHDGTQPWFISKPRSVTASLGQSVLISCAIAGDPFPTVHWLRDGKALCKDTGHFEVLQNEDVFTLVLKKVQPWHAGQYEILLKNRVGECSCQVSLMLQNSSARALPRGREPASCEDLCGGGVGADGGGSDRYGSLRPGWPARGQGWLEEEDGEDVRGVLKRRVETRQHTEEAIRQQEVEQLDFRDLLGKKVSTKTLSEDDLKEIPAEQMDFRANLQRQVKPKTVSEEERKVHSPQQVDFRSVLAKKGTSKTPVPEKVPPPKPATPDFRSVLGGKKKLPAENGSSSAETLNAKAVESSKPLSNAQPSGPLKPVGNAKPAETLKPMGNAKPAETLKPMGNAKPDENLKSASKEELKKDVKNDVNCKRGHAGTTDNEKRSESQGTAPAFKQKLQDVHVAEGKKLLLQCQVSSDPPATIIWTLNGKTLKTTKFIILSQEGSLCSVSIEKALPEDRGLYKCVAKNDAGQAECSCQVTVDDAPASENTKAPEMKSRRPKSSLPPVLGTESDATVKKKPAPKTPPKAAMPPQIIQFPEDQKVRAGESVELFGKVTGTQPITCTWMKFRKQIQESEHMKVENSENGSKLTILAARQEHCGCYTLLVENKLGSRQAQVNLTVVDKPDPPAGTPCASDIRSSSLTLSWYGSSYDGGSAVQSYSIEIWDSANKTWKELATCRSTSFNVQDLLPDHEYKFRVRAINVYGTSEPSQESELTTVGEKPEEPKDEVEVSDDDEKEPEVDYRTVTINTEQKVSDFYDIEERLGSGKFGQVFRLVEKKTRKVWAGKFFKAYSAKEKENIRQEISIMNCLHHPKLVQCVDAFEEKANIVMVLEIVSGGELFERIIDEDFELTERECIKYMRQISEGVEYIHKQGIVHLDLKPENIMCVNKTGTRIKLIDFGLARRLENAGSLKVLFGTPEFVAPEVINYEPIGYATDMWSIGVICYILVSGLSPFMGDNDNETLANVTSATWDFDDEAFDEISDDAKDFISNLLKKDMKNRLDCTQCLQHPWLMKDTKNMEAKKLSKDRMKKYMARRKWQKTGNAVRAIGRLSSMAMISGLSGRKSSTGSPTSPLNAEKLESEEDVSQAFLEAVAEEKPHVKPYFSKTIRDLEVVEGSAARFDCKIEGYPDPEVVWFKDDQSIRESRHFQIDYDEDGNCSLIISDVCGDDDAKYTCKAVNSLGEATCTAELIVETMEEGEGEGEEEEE
Chain of UniProt Q8IU85 (whole entry, looked up): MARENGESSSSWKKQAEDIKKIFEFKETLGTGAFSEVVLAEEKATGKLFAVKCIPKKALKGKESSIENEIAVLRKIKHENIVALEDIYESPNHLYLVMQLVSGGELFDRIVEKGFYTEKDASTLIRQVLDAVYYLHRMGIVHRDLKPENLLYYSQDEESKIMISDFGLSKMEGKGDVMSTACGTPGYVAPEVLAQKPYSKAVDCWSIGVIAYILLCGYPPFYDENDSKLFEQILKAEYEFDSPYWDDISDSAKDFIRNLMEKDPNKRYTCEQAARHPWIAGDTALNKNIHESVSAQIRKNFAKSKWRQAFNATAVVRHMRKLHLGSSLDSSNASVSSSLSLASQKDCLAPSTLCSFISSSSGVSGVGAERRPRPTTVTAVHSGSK

Study 1
Cell line: mouse MPNST tumor cells
Technique: high-content nuclear imaging
Measured: cell number
Concentration: 10 µM
Time: 12 h
Notes: mean of 2 replicates
Reference: plate mean
Reading: higher = more cells
Endpoint: nuclei count
Cc1cccc(C)c1NC(=O)C(C)N (centres unmarked): -0.185 z-score
Cc1cccc(NC(=O)CN2CCC(c3ccccn3)CC2)c1: 0.799 z-score
Cc1nnc(C(=O)NC(C)(C)c2nc(C(=O)NCc3ccc(F)cc3)c(O)c(=O)n2C)o1: 1.42 z-score
COc1ccc(C2CC(c3c(O)cc(C)oc3=O)=NCCS2)c(OC)c1 (centres unmarked): -5.21 z-score
COC[C@H](C)Oc1cc(O[C@@H](C)Cc2ccccc2)cc(C(=O)Nc2ccc(C(=O)O)cn2)c1: 0.31 z-score

Study 2
Target: His6 tag
Technique: AlphaScreen counter screen
Concentration: concentration not given
Endpoint: inhibition
COc1ccc(-c2nnc(SCC(=O)Nc3ccc(F)cc3F)n2-n2cccc2)cc1: 12.7%
COC(=O)c1ccccc1NC(=O)CSc1nnc(-c2ccccc2)n1-n1cccc1: 17.6%
COc1cccc(C(=O)c2sc(Nc3ccc(F)c(Cl)c3)nc2N)c1: 3.15%
O=C(NCC1CCCO1)c1n[nH]c2ccccc12 (centres unmarked): -0.275%
CCCN(Cc1ccccc1)C(=S)Nc1ccc2nc[nH]c(=O)c2c1: 8.15%

Study 3
Cell line: Huh-7
Concentration: 10 µM
Time: 24 h
Endpoint: viability
Cc1ccc(C(=O)Nc2ccc(S(=O)(=O)O)c3cc(S(=O)(=O)O)cc(S(=O)(=O)O)c23)cc1NC(=O)c1cccc(NC(=O)Nc2cccc(C(=O)Nc3cc(C(=O)Nc4ccc(S(=O)(=O)O)c5cc(S(=O)(=O)O)cc(S(=O)(=O)O)c45)ccc3C)c2)c1: 102%
CCn1cc(C(=O)O)c(=O)c2cc(F)c(N3CCNCC3)cc21: 99.1%
O=C1NS(=O)(=O)c2ccccc21: 94.8%
CC1(C)O[C@@H]2C[C@H]3[C@@H]4C[C@H](F)C5=CC(=O)CC[C@]5(C)[C@H]4[C@@H](O)C[C@]3(C)[C@]2(C(=O)CO)O1: 99.8%
CCC1(C)OC(=O)N(C)C1=O (centres unmarked): 98%
O=C(CCCN1CCN(c2ccccn2)CC1)c1ccc(F)cc1: 97%
CN(C)c1nc(N(C)C)nc(N(C)C)n1: 100%

Study 4
Cell line: HaCaT
Concentration: 100 µM
Time: 36 h
Endpoint: viability
Cc1ccccc1C(=O)Nc1ccc(C(=O)N2CCCC(O)c3cc(Cl)ccc32)c(C)c1 (centres unmarked): 63.8%
O=C(Nc1ccccc1)OCC(CN1CCCCC1)OC(=O)Nc1ccccc1 (centres unmarked): 5.73%
COc1cc(C(=O)NS(=O)(=O)c2ccccc2C)ccc1Cc1cn(C)c2ccc(NC(=O)OC3CCCC3)cc12: 44.3%
CN(C)CCn1nnnc1SCC1=C(C(=O)O)N2C(=O)[C@@H](NC(=O)Cc3csc(N)n3)[C@H]2SC1: 112%

Study 5
Host: mouse
Medium: microsomes or S9
Concentration: 2 µM
Time: 0.5 h
Endpoint: remaining compound
Cc1cc(C)c(-c2n[nH]cc2-c2nc3ccccc3s2)c(O)c1: 1.02%
CCc1cc(Nc2nc(Cl)ncc2OC)n[nH]1: 45.7%
CCOc1ccc(Nc2ncc(F)c(Nc3ccc(OCC)cc3)n2)cc1: 1.06%
COc1ccccc1N1C(=N)C(C)(C(C)C)NC1=O (centres unmarked): 93.6%
CCOc1cc(=O)n2c(c1C(=O)NCC1CCCO1)CCCCC2 (centres unmarked): 60.9%
CCOC1CC(NC(=O)c2nnn(C3CCNCC3)c2C)C12CCC2 (centres unmarked): 0.518%

Study 6
Structure (SMILES): COc1ccc(-c2c(Nc3ccccn3)[nH]c3c(C4=CCCCC4)c(-c4ccccc4)nn3c2=O)cc1
Technique: LC-MS/MS
Host: human
Medium: plasma
Route: oral
Endpoint: Tlag
100 mg once daily: 0 h
150 mg once daily: 0 h
400 mg once daily: 0 h

Study 7
SMILES: CSc1cccnc1N1CCN(Cc2nc3ccccc3[nH]2)CC1
Concentration: 1 µM
Endpoint: remaining binding
Tyrosine-protein kinase ABL1, phosphorylated (ABL1, Homo sapiens, UniProt P00519, E255K); cell-free assay, competition with immobilised ligand: 67%
MUSK (Homo sapiens, UniProt O15146); cell-free assay, competition with immobilised ligand: 100%
DCLK1 (Homo sapiens, UniProt O15075); cell-free assay, competition with immobilised ligand: 82%
ULK1 (Homo sapiens, UniProt O75385); cell-free assay, competition with immobilised ligand: 88%
TLK2 (Homo sapiens, UniProt Q86UE8); cell-free assay, competition with immobilised ligand: 100%
PIP5K1C (Homo sapiens, UniProt O60331); cell-free assay, competition with immobilised ligand: 100%
FGFR3 (Homo sapiens, UniProt P22607); cell-free assay, competition with immobilised ligand: 100%
COQ8A (Homo sapiens, UniProt Q8NI60); cell-free assay, competition with immobilised ligand: 100%
CAMK2G (Homo sapiens, UniProt Q13555); cell-free assay, competition with immobilised ligand: 100%
CHEK2 (Homo sapiens, UniProt O96017); cell-free assay, competition with immobilised ligand: 96%
KIT (Homo sapiens, UniProt P10721, V559D); cell-free assay, competition with immobilised ligand: 96%
PIK3CA (Homo sapiens, UniProt P42336, I800L); cell-free assay, competition with immobilised ligand: 77%
ALK (Homo sapiens, UniProt Q9UM73, L1196M); cell-free assay, competition with immobilised ligand: 100%
CDC42BPG (Homo sapiens, UniProt Q6DT37); competition binding: 100%
MYLK3 (Homo sapiens, UniProt Q32MK0); cell-free assay, competition with immobilised ligand: 100%
PRKCI (Homo sapiens, UniProt P41743); cell-free assay, competition with immobilised ligand: 100%
NEK2 (Homo sapiens, UniProt P51955); cell-free assay, competition with immobilised ligand: 96%
RIOK1 (Homo sapiens, UniProt Q9BRS2); cell-free assay, competition with immobilised ligand: 100%
CAMK1D (Homo sapiens, UniProt Q8IU85); cell-free assay, competition with immobilised ligand: 100%
STK32A (Homo sapiens, UniProt Q8WU08); binding, competition with immobilised ligand: 100%
Tyrosine-protein kinase ABL1, phosphorylated (ABL1, Homo sapiens, UniProt P00519, H396P); cell-free assay, competition with immobilised ligand: 77%
WNK1 (Homo sapiens, UniProt Q9H4A3); cell-free assay, competition with immobilised ligand: 100%
TESK1 (Homo sapiens, UniProt Q15569); cell-free assay, competition with immobilised ligand: 100%
MYLK (Homo sapiens, UniProt Q15746); binding, competition with immobilised ligand: 94%
FLT3 (Homo sapiens, UniProt P36888, F691L/ITD); cell-free assay, competition with immobilised ligand: 100%

Other studies, line by line
CC(C)n1cnc(-c2ccc(F)cc2)c1-c1ncc(C(=O)Nc2ccc(N3CCN(C)CC3)cc2)[nH]1
patients with serious adverse event (measured: grade ≥3 events; patients with idiopathic pulmonary fibrosis; 30 mg twice daily, trial, added: standard of care therapy): 25%

Repeated from above (study 7):
ALK (Homo sapiens, UniProt Q9UM73, L1196M); cell-free assay, competition with immobilised ligand: 100%
CDC42BPG (Homo sapiens, UniProt Q6DT37); competition binding: 100%
MYLK3 (Homo sapiens, UniProt Q32MK0); cell-free assay, competition with immobilised ligand: 100%
PRKCI (Homo sapiens, UniProt P41743); cell-free assay, competition with immobilised ligand: 100%
